Measurements gathered from unrelated publications.
Several values in a cell are separate wells, animals, samples, runs or records. ± gives the spread as reported.

For `CCn1cc(-c2cc(Cn3ccoc3=N)cc3c2CCN([C@@H](C)c2cc(OC)ccn2)C3=O)c(C(F)(F)F)n1`, the EC50 was greater than 30 µM (SNU878; cell growth, inhibitor; 120 h).
With `COc1cccc2c1C(=O)c1c(O)c3c(c(O)c1C2=O)C[C@@](O)(C(=O)CO)C[C@@H]3O[C@H]1C[C@H](N)[C@H](O)[C@H](C)O1` the EC50 was 0.33 ± 0.04 µM (human foreskin fibroblasts CRL-4001; cell viability, MTT; 72 h).
`C=C1C(=O)O[C@H]2[C@H]1CC/C(C)=C/CC[C@@]1(C)O[C@@H]21` gave an EC50 of 8.5 µM (iPSC-derived cardiomyocytes; concentration-response curve, measured: MyBP-C/MYH ratio; 24 h).
`COc1cc(OC)c2c(=O)[nH]c(-c3cc(C)c(OCCO)c(C)c3)nc2c1` has a viability of 146% (OCI-Ly1; 0.5 µM, 120 h).
`Cc1cc2c(C(N)=O)cccc2n1-c1nc2c(c(NCc3ccccc3)n1)COCC2` gave an EC50 of 0.931 µM (HEK293T stably expressing ATF4-FLuc; ISR reporter gene, activator).
`COc1cc(/C=C/c2ccc(O)cc2)cc(OC)c1` has an EC50 of 16.5 µM (iPSC-derived cardiomyocytes; concentration-response curve, measured: MyBP-C protein level; 24 h).
`C[C@]12CCCN1CC1=NNC(=O)c3cc(F)cc4[nH]c2c1c34` gave an EC50 of greater than 10 µM (SGC-7901 gastric cancer cells; cell viability; concentration not given, together with: with temozolomide).
For `O=C1c2ccccc2N=C2N(c3ccccc3)CCC12O` (stereo not drawn), the EC50 was 24 µM (COS-7; cytokinesis; 24 h).
`O=C(NN=Cc1ccc(Br)cc1)C1CC(=O)N(c2ccc(F)cc2F)C1` (stereo not drawn) gave an EC50 of 43.3 ± 5.8 µM (human foreskin fibroblasts CRL-4001; cell viability, MTT; 72 h).
The EC50 of `[Cl-].[Cl-].[Ru+2].c1cnc2c(c1)ccc1cccnc12.c1cnc2c(c1)ccc1cccnc12.c1csc(-c2nc3c4cccnc4c4ncccc4c3[nH]2)c1` is reported as roughly 0.6 µM (SK-MEL-28; normoxia, together with: visible light 400-700 nm, 100 J/cm2).
For `c1ccc2c(Cc3c[nH]c4ccccc34)c[nH]c2c1`, the viability was 177% (OCI-Ly1; 0.1 µM, 120 h).
With `C[n+]1cc2c3c(ccc2c2ccc4cc5c(cc4c21)OCO5)OCO3` the EC50 was 6.6 µM (iPSC-derived cardiomyocytes; concentration-response curve, measured: MyBP-C protein level; 24 h).
For `Cc1ccc(C=NNC(=O)C2CC(=O)N(c3ccc(F)cc3F)C2)cc1` (stereo not drawn), the EC50 was 3.9 ± 0.2 µM (human foreskin fibroblasts CRL-4001; cell viability, MTT; 72 h).
For `CCn1cc(-c2cc(Cn3ccnc3)cc3c2CCN([C@H](c2cc(OC)ccn2)C2CC2)C3=O)c(C(F)(F)F)n1`, the EC50 was 12.5 µM (SNU1196; cell growth; 120 h).
For `CC(C)NCCCn1c(Sc2cc3c(cc2I)OCO3)nc2c(N)ncnc21`, the EC50 was 4.8 µM (iPSC-derived cardiomyocytes; concentration-response curve, measured: MyBP-C protein level; 24 h).
`S=C(NCc1ccc2c(c1)OCO2)N1CCN(c2ncnc3c2oc2ccccc23)CC1` gave an EC50 of greater than 10 µM (iPSC-derived neurons, 2-week differentiating; metabolic activity, CellTiter-Blue; 24 h).
`COc1cnc2cccc(N3CCc4c(cc(Cn5ccnc5C)cc4-c4cn(C)nc4C(F)(F)F)C3=O)c2c1` gave an EC50 of 0.0939 µM (TE-11; cell growth, inhibitor; 120 h).
`CCNC(=O)c1noc(-c2cc(C(C)C)c(O)cc2O)c1-c1ccc(CN2CCOCC2)cc1` gave an EC50 of 1.6 µM (iPSC-derived cardiomyocytes; concentration-response curve, measured: MyBP-C protein level; 24 h).
For `CCCC[C@@H]1NC(=O)[C@H](Cc2ccc(O)cc2)NC(=O)[C@@H]2CCCN2C(=O)[C@H](CC(=O)O)NC(=O)[C@H](C)NC(=O)[C@H](Cc2ccccc2)NC(=O)[C@@H]2CSCCC(=O)N3CN(CN(C3)C(=O)CCSC[C@@H](C(=O)N[C@@H](CNC(=O)CCOCCOCCOCCOCCOCCOCCOCCOCCOCCOCCOCCOCCn3cc(CCC(=O)NCCC(=O)N(C)CC(=O)N(C)CC(=O)N(C)CC(=O)N(C)CC(=O)N(C)CC(=O)N(C)CC(=O)N(C)CC(=O)N(C)CC(=O)N(C)CC(=O)N(C)CC(=O)N[C@H]4CSCCC(=O)N5CN6CN(C5)C(=O)CCSC[C@H](NC(=O)[C@@H](CC(=O)O)NC(=O)[C@H](Cc5cccc7ccccc57)NC(=O)[C@@H]5CCCN5C4=O)C(=O)N[C@@H](CCSC)C(=O)N[C@@H](CCCCNC(=N)N)C(=O)N[C@@H](CC(=O)O)C(=O)N[C@@H](Cc4c[nH]c5ccccc45)C(=O)N[C@@H](CO)C(=O)N[C@@H]([C@@H](C)O)C(=O)N4CCC[C@H]4C(=O)N4C[C@H](O)C[C@H]4C(=O)N[C@@H](Cc4c[nH]c5ccccc45)C(=O)N[C@H](C(N)=O)CSCCC6=O)nn3)C(N)=O)NC1=O)C(=O)CCSC[C@H](NC(=O)[C@H](C)NC(C)=O)C(=O)N[C@@H]([C@@H](C)CC)C(=O)N[C@@H](CCC(=O)O)C(=O)N[C@@H](CCC(=O)O)C(=O)NCC(=O)N[C@@H](CCC(N)=O)C(=O)N[C@@H](Cc1ccc(O)cc1)C(=O)N2`, the EC50 was 0.0081 µM (human PBMC with HT-1376 coculture; IL-2 secretion; together with: anti-CD3).
`[Cl][Ru][Cl].c1cnc2c(c1)ccc1cccnc12.c1cnc2c(c1)ccc1cccnc12.c1cnc2c(c1)ccc1cccnc12` has an EC50 of 22 µM (SK-MEL-28; normoxia, together with: visible light 400-700 nm, 100 J/cm2).
The EC50 of `C=C1C(=O)O[C@@H]2/C=C(\C)CC/C=C(\C)CC[C@@H]12` is reported as greater than 50 µM (iPSC-derived cardiomyocytes; concentration-response curve, measured: MyBP-C protein level).
With `[Cl-].[Cl-].[Ru+2].c1cnc2c(c1)ccc1cccnc12.c1cnc2c(c1)ccc1cccnc12.c1csc(-c2ccc(-c3ccc(-c4nc5c6cccnc6c6ncccc6c5[nH]4)s3)s2)c1` the EC50 was roughly 1 µM (SK-MEL-28; cell viability, resazurin; hypoxia 1% O2, together with: green visible light).
With `C=C1C(=O)OC2C1CC1OC2C(C)CCC/C(C)=C\CCC1(C)O` (stereo not drawn) the EC50 was 15.9 µM (iPSC-derived cardiomyocytes; concentration-response curve, measured: MyBP-C protein level).
For `Cc1nn(-c2nc3c(F)cc(F)cc3s2)c(O)c1C(c1ccc(C(F)(F)F)cc1)c1c(C)nn(-c2nc3c(F)cc(F)cc3s2)c1O`, the EC50 was 11.6 µM and 11.4 µM (THP1-Dual; IFN reporter gene, inhibitor, luciferase reporter; together with: HT-DNA).
For `CCn1c(=O)/c(=C2\Sc3ccccc3N2C)s/c1=C\c1cccc[n+]1CC`, the EC50 was greater than 50 µM (iPSC-derived cardiomyocytes; concentration-response curve, measured: MyBP-C protein level).
`O=C(NN=Cc1ccc(Cl)cc1)C1CC(=O)N(c2ccc(F)cc2F)C1` (stereo not drawn) gave an EC50 of 66 ± 7.2 µM (human foreskin fibroblasts CRL-4001; cell viability, MTT; 72 h).
With `[Cl-].[Cl-].[Ru+2].c1cnc2c(c1)ccc1cccnc12.c1cnc2c(c1)ccc1cccnc12.c1csc(-c2ccc(-c3ccc(-c4ccc(-c5nc6c7cccnc7c7ncccc7c6[nH]5)s4)s3)s2)c1` the EC50 was less than 100 µM (SK-MEL-28; cytotoxicity, resazurin; dark, normoxia).
